Results pooled from the literature.
Protocols differ between the studies behind these lines. “And” joins repeats or separate records; there may be more than shown. Numbers after ± are the reported error.
ALB: Albumin (ALB, Homo sapiens, UniProt P02768)
uncharacterized protein: uncharacterized protein (Spodoptera exigua, UniProt F1CEY0)
ADORA2A: Adenosine receptor A2a (ADORA2A, Homo sapiens, UniProt P29274)

For `Cc1occc(=O)c1[O-].[Cl-].[W+4].c1cc[cH-]c1.c1cc[cH-]c1`, “Gibbs free energy change” read -6.11 kcal/mol (ALB; binding, fluorescence quenching; 317 K).
The kon of `CC[C@H](C)[C@@H]1NC(=O)[C@H](CO)NC(=O)[C@@H]2CCCN2C(=O)[C@@H](NC(=O)CN)CSSC[C@@H]2NC(=O)CNC(=O)[C@H](C)NC(=O)[C@H](CC(C)C)NC(=O)[C@@H]3CSSC[C@@H](C(=O)NCC(=O)O)NC(=O)[C@H](Cc4ccccc4)NC(=O)CNC(=O)[C@H](CC(N)=O)NC(=O)[C@@H]4CCCN4C(=O)CNC(=O)[C@H](CSSC[C@H](NC(=O)[C@H](CCCNC(=N)N)NC(=O)[C@@H]4CCCN4C(=O)[C@H](CCCNC(=N)N)NC(=O)[C@H](CCCCN)NC(=O)[C@H](C(C)C)NC(=O)[C@H](CCCNC(=N)N)NC(=O)[C@H](CC(N)=O)NC1=O)C(=O)N[C@@H](CCCCN)C(=O)N[C@@H](CCC(N)=O)C(=O)N[C@@H](CC(=O)O)C(=O)N[C@@H](CO)C(=O)N[C@@H](CC(=O)O)C(=O)N3)NC(=O)[C@H](C(C)C)NC2=O` is reported as 1.47e+06 ± 120000 M⁻¹ s⁻¹ (Low-density lipoprotein receptor-related protein 6, E1 domain (LRP6, Homo sapiens, UniProt O75581); binding, SPR; pH 7.5).
`OC[C@H]1O[C@@H](Oc2cc3c(O)cc(O)cc3[o+]c2-c2ccc(O)cc2)[C@H](O)[C@@H](O)[C@@H]1O`: “Gibbs free energy” -5.82 kcal/mol (ALB; binding, fluorescence quenching; 20 °C).
`CCCCCCCCOC(C)=O` gave a relative fluorescence of 43.1% (uncharacterized protein; binding, competitor, fluorescence displacement; 20 µM, pH 7.4, with: 1-NPN 20 µM; baseline: 1-NPN alone).
The Hill slope of `Cc1cc(C(=O)NC[C@@H](N)C(=O)O)sc1-c1ccccc1Br` is reported as 1.24 (Glutamate receptor ionotropic, NMDA 1, with GluN2D (Grin1, Rattus norvegicus, UniProt P35439); with: glutamate 300 µM).
With `O=C(O)c1ccc(Nc2ncc3c(n2)-c2ccc(Cl)cc2C(c2c(F)cccc2F)=NC3)cc1` the remaining activity was 110% (GRK6(h); kinase activity; 1 µM).
For `Nc1ncnc2c1ncn2[C@@H]1O[C@H](COP(=O)(O)OP(=O)(O)NP(=O)(O)O)[C@@H](O)[C@H]1O`, the -TΔS was -4.5 kcal/mol (Cell cycle histidine kinase CckA, CA domain (Caulobacter vibrioides, UniProt Q9X688); ITC; 12 °C, without c-di-GMP).
Under “thermal stability ratio”, `O=C(COP(=O)(O)O)[C@@H](O)[C@H](O)[C@H](O)COP(=O)(O)O` is recorded as 0.571 and 0.588 and 0.409 (Splicing factor U2AF 65 kDa subunit (Homo sapiens, UniProt P26368); thermal proteome profiling, item: U2AF2; HepG2 cell lysate; concentration not given, 57 over 37 °C; baseline: compound over control).
For `CSCC[C@H](N)C(=O)Nc1ccc2ccccc2c1`, the kcat was 33.8 s⁻¹ (Puromycin-sensitive aminopeptidase (Rattus norvegicus, UniProt F1M9V7); substrate; MW 100 kDa).
`Nc1ncnc2c1ncn2[C@@H]1O[C@H](CO[P@](=O)(O)O[P@](=O)(O)O[P@@](=O)(O)S)[C@@H](O)[C@H]1O` gave a ΔH of -0.581 kcal/mol (GUK1 (Homo sapiens, UniProt Q16774); binding, isothermal titration calorimetry; molar ratio 1.741, fitted curve).
For `COc1cccc(F)c1-c1ccc(C(=O)NC[C@@H](N)C(=O)O)s1`, the Hill slope was 1.4 (Glutamate receptor ionotropic, NMDA 1, with GluN2A (Grin1, Rattus norvegicus, UniProt P35439); with: glutamate 300 µM).
For `COc1cccc(CC(NC(=O)CNCc2ccccc2)C(=O)O)c1I` (stereo not shown), activity read “inactive” (OPRK1 (Homo sapiens, UniProt P41145); binding; concentration not given).
`CCCCC[C@H](O)/C=C/[C@H]1C(=O)C[C@H](O)[C@@H]1C/C=C\CCCC(=O)O` has an Emax of 89 ± 9% (PTGDR (Homo sapiens, UniProt Q13258, R332A); agonist).
For `C=CC(=O)N1CCC[C@@H](n2nc(-c3ccc(Oc4ccccc4)cc3)c3c(N)ncnc32)C1`, the remaining activity was 40.9% (MAPK1 (Homo sapiens, UniProt P28482); 0.1 µM).
`CCCCCCC=O` gave a relative fluorescence of 74.1% (uncharacterized protein; binding, competitor, fluorescence displacement; 20 µM, pH 7.4, with: 1-NPN 20 µM; baseline: 1-NPN alone).
`CC[C@H](C)[C@@H]1NC(=O)[C@H](Cc2ccc(O)cc2)NC(=O)[C@H](CC(C)C)NC(=O)[C@@H]2CCCN2C(=O)[C@@H](NC(=O)[C@H](CCCNC(=N)N)NC(=O)[C@H](CCCNC(=N)N)NC(C)=O)CSSC[C@@H](C(=O)N[C@@H](CCCNC(=N)N)C(=O)N[C@@H](CCCNC(=N)N)C(N)=O)NC(=O)[C@H](C(C)C)NC(=O)[C@@H]2CCCN2C(=O)[C@H](CC(=O)O)NC(=O)[C@H](C(c2ccccc2)c2ccccc2)NC(=O)[C@H](CO)NC1=O` — result for “lowest bound protein concentration”: 0.08 µM (GTPase KRas, GDP-bound (KRAS, Homo sapiens, UniProt P01116, G12D); affinity selection mass spectrometry; mixture library 2, with: protein titration up to 5 µM; lower is stronger binding).
Under “probe labelling inhibition”, `Cc1cc(-c2ccnc3[nH]cc(F)c23)cc(F)c1[C@@]1(O)[C@H](C)CN(C2CCS(=O)(=O)CC2)C[C@@H]1C` is recorded as 30.1% (JAK1 (Homo sapiens, UniProt P23458); ATP/ADP probe binding, KiNativ; HEK293T lysate; 10 µM, activation loop domain 2).
For `COCCN1C(=O)c2[nH]nc(-c3ccccc3O)c2C1c1ccc(F)cc1` (stereo not shown), the ligand efficiency was 0.3 (ADORA2A; radioligand displacement; with: [3H]ZM241385).
With `C[C@@H](c1ccc(-n2cnc3c(N)ncnc32)cc1)N1CCc2nn(C)c(Cc3ccccc3)c2C1=O` the remaining binding was 79% (Ribosomal protein S6 kinase alpha-6, C-terminal kinase domain (RPS6KA6, Homo sapiens, UniProt Q9UK32); KINOMEscan; 0.1 µM; baseline: DMSO control).
`C=CC(=O)N1CCC(COCC(=O)N2CCN(c3nc(-c4cnc(N)nc4C(F)F)nc(N4CCOC[C@@H]4C)n3)CC2)CC1` gave a remaining binding of 100% (CAMK1G (Homo sapiens, UniProt Q96NX5); KINOMEscan; 1 µM).
The inhibition of `O=C(Nc1cccc2c(=O)cc(-c3nnn[nH]3)oc12)c1ccc(OCCCCc2ccccc2)cc1` is reported as 1.67% and 49.4% and 15.2% and 43.8% (Volume-regulated anion channel subunit LRRC8C, part LRRC8A IL1 chimera (LRRC8C, Homo sapiens, UniProt Q8TDW0); ion current, inhibitor, whole-cell patch clamp; HCT LRRC8-/- cells, transfected; 1 µM, low ionic strength swelling, -100 mV).
For `O=c1nc(SCc2cc(F)cc(C(F)(F)F)c2)nc(SCc2ccc3sccc3c2)[nH]1`, “ATP hydrolysis rate” read 0.322 µM/min and 0.425 µM/min (TOP2A (Homo sapiens, UniProt P11388); ATPase activity; 7.8 µM, with: ATP 0.025 mM).
`Nc1ncnc2c1ncn2[C@@H]1O[C@H](COP(=O)(O)CP(=O)(O)OP(=O)(O)O)[C@@H](O)[C@H]1O` has a calcium influx of 1.64% (P2X purinoceptor 1 (P2RX1, Homo sapiens, UniProt P51575, D170A); calcium influx; 31.6 nM; baseline: ionomycin response).
For `CC[C@H](C)[C@@H]1NC(=O)[C@H](C)NC(=O)[C@H]([C@@H](C)CC)NC(=O)[C@H](CCC(N)=O)NC(=O)[C@H](C)NC(=O)[C@H](CCCNC(=N)N)NC(=O)[C@H](C(C)C)NC(=O)[C@H](CC(C)C)NC(=O)[C@H](CCC(=O)O)NC(=O)[C@H](CCCNC(=N)N)NC(=O)CNC(=O)[C@@H](NC(=O)[C@H](CC(C)C)NC(=O)[C@H](CCCCN)NC(=O)[C@@H](NC(=O)[C@@H](NC(=O)[C@H](CCC(=O)O)NC(=O)[C@H](CCC(=O)O)NC(=O)[C@H](CCSC)NC(=O)[C@H](Cc2c[nH]c3ccccc23)NC(=O)[C@H](CO)NC(=O)[C@@H](N)CC(=O)O)C(C)C)[C@@H](C)CC)CSSC[C@@H]2NC(=O)[C@@H](NC(=O)[C@H](CCCCN)NC(=O)[C@H](CC(N)=O)NC(=O)[C@H](C)NC(=O)[C@H](CC(C)C)NC(=O)[C@H](C)NC(=O)[C@H](CO)NC(=O)[C@H](Cc3ccc(O)cc3)NC(=O)[C@H](CC(C)C)NC(=O)[C@H](CCC(N)=O)NC(=O)c3ccc(-c4c5ccc(=[N+](C)C)cc-5oc5cc(N(C)C)ccc45)c(C(=O)[O-])c3)CSSC[C@H](NC(=O)CNC(=O)[C@H](C(C)C)NC(=O)[C@H](Cc3c[nH]cn3)NC2=O)C(=O)N[C@@H]([C@@H](C)O)C(=O)N[C@@H](CCCCN)C(=O)N[C@@H](CCCNC(=N)N)C(=O)N[C@@H](CO)C(=O)N[C@@H](CC(C)C)C(=O)N[C@@H](C)C(=O)N[C@@H](CCCNC(=N)N)C(=O)N[C@@H](Cc2ccccc2)C(=O)N[C@H](C(=O)O)CSSC[C@@H](C(=O)NCC(=O)N[C@@H](CCSC)C(=O)N[C@@H](CO)C(=O)N[C@H](C(=O)N[C@@H](Cc2c[nH]c3ccccc23)C(=O)N[C@@H](CO)C(=O)O)[C@@H](C)O)NC1=O`, “koff slow phase” read 0.000954 s⁻¹ (Relaxin receptor 1 (RXFP1, Homo sapiens, UniProt Q9HBX9, F76A/Y80A); dissociation, NanoBRET; infinite dilution).
The fold enrichment of `O=C(O)[C@@H]1CCCN1c1ncnc2[nH]cnc12` (racemic) is reported as 1.18 (DNA mismatch repair protein Msh6 (Homo sapiens, UniProt P52701); binding, affinity selection mass spectrometry; baseline: other proteins in batch).
Under “normalised MST signal”, `O=C(O)C1CCCNC1` (stereo not shown) is recorded as 0.0889 (SLC6A6 (Homo sapiens, UniProt P31641, G62A); binding, microscale thermophoresis; 977 nM, room temperature, with: 50 nM labelled protein; higher = more binding).
For `OC[C@H]1O[C@@H](Oc2cc3c(O)cc(O)cc3[o+]c2-c2ccc(O)c(O)c2)[C@H](O)[C@@H](O)[C@@H]1O`, “Gibbs free energy” read -6.28 kcal/mol (ALB; binding, fluorescence quenching; 20 °C).
`c1ccc(Nc2nccc(-c3cccnc3)n2)cc1` has a displacement of 25 ± 3% (ADORA2A; binding, radioligand competition; 30 µM, with: [3H]ZM241385).
`C=C1C(=O)O[C@@H]2C[C@@]3(C)CCCC(=C)[C@@H]3C[C@H]12` has an activation of 0.74 fold (RXRA (Homo sapiens, UniProt P19793); reporter gene, Gal4 hybrid reporter; 10 µM; baseline: vehicle).
For `C=CC(=O)N1CCC(C(=O)NCC(=O)N2CCN(c3nc(-c4cnc(N)nc4C(F)F)nc(N4CCOCC4)n3)CC2)CC1`, the remaining binding was 85% (ULK1 (Homo sapiens, UniProt O75385); KINOMEscan; 1 µM).
`CC[C@H](C)[C@H](NC(=O)[C@H](CCCNC(=N)N)NC(=O)[C@H](Cc1ccc(O)cc1)NC(=O)[C@@H]1CSCc2cc3cc(c2)CSC[C@H](NC(=O)[C@@H]2CCCN2C(=O)[C@H](CO)NC(=O)[C@@H]2CCCN2C(=O)[C@@H](NC(=O)[C@H](CCSC)NC(C)=O)[C@@H](C)O)C(=O)N[C@@H]([C@@H](C)O)C(=O)N[C@@H](CC(C)C)C(=O)N[C@@H](Cc2ccccc2)C(=O)N[C@@H](CSC3)C(=O)N1)C(=O)N[C@@H](Cc1ccc(O)cc1)C(=O)NCC(=O)N[C@@H](CO)C(=O)NCC(=O)N[C@@H](CO)C(=O)NCC(=O)N[C@@H](CO)C(=O)N[C@@H](CC(=O)O)C(=O)N[C@@H](Cc1ccc(O)cc1)C(=O)N[C@@H](CCCCN)C(=O)N[C@@H](CC(=O)O)C(=O)N[C@@H](CC(=O)O)C(=O)N[C@@H](CC(=O)O)C(=O)N[C@@H](CC(=O)O)C(=O)N[C@@H](CCCCN)C(=O)N[C@@H](CCCCN=[N+]=[N-])C(N)=O` gave a BLI response of 0.04 RU (Fibroblast growth factor receptor 3, extracellular domain (FGFR3, Homo sapiens, UniProt P22607); binding, biolayer interferometry; concentration not given).

For quick reference, copied from above:
The Hill slope of `Cc1cc(C(=O)NC[C@@H](N)C(=O)O)sc1-c1ccccc1Br` is reported as 1.24 (Glutamate receptor ionotropic, NMDA 1, with GluN2D (Grin1, Rattus norvegicus, UniProt P35439); with: glutamate 300 µM).
With `O=C(O)c1ccc(Nc2ncc3c(n2)-c2ccc(Cl)cc2C(c2c(F)cccc2F)=NC3)cc1` the remaining activity was 110% (GRK6(h); kinase activity; 1 µM).
